Measured values collected from several papers.
Compare with care: the assays were run in different laboratories. ± gives the spread as reported. Where no end group is shown, it is not given here. [ ]: non-standard residue; d: D form.
abrB full length assumed: abrB full length assumed (Bacillus licheniformis, UniProt Q65PI4)
SNU13: SNU13 1-128 (Homo sapiens, UniProt P55769)
Chain of UniProt P55769 (whole entry, looked up): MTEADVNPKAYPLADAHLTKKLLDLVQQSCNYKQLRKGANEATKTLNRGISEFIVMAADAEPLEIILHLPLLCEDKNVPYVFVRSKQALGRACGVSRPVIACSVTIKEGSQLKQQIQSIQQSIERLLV
lysM 1-142: lysM 1-142 (Sulfolobus solfataricus, UniProt Q980W9)
Chain of UniProt Q980W9 (whole entry, looked up): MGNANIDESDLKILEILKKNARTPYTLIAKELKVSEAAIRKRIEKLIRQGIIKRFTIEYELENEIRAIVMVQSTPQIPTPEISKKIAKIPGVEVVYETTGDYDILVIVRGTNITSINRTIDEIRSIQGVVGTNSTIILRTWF
T1: Cbp1 1-150 (Saccharolobus islandicus); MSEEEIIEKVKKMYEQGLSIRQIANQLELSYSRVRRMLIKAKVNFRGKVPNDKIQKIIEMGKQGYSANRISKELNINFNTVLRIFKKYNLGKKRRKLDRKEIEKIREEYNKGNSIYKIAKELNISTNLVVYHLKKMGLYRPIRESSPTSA
T2: NR1I2/RXRA (Homo sapiens); chain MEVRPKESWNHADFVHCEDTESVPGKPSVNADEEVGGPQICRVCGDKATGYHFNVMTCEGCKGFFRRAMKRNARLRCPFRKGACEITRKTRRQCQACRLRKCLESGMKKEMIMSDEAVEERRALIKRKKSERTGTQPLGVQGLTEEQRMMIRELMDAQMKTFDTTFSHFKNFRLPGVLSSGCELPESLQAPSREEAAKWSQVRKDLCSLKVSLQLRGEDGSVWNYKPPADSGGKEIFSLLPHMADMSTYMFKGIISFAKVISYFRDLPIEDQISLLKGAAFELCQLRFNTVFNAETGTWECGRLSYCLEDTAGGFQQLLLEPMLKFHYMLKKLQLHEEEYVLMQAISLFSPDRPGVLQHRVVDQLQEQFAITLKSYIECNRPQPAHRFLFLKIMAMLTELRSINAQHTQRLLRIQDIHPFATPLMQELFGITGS; chain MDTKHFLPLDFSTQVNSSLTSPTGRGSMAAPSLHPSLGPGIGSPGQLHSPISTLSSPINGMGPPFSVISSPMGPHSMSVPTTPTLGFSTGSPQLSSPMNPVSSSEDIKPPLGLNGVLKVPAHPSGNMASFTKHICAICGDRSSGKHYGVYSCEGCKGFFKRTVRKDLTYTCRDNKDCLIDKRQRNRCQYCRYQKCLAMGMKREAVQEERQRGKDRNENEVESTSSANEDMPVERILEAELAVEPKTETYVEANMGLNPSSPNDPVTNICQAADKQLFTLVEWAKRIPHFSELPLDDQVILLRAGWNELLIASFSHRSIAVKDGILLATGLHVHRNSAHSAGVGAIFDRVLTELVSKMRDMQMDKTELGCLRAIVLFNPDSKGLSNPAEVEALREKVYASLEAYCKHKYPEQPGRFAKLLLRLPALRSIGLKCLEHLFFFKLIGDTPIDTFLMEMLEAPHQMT
Chain of UniProt Q1LUM3 (whole entry, looked up): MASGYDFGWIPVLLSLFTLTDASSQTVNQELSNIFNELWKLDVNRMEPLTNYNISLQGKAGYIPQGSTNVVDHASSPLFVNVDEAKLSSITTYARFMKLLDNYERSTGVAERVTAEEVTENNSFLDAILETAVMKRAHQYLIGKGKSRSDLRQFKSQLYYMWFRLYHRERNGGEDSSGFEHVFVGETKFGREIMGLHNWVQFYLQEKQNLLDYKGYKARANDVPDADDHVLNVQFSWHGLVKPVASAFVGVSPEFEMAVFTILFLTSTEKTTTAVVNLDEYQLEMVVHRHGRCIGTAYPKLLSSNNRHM
Chain of UniProt O60656 (whole entry, looked up): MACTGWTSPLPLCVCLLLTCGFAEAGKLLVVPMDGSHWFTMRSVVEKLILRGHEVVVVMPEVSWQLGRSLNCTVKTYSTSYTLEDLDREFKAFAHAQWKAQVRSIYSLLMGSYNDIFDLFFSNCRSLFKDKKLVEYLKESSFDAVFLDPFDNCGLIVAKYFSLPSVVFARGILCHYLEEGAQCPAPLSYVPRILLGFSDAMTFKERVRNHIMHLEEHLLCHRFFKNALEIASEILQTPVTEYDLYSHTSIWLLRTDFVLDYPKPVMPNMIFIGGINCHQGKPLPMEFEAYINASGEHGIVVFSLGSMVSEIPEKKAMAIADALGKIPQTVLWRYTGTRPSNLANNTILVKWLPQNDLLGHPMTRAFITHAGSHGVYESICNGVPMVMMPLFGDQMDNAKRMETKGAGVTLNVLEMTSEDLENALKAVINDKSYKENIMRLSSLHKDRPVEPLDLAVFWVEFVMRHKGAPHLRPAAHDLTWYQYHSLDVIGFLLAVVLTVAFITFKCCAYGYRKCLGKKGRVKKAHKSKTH

`VV[Nle]A (Nle3; Nle = CCCC[C@H](N)C(=O)O)` gave a cell viability of 70% (PC-12; protection from Aβ1–42 toxicity, MTT; concentration not given, 6 h, Aβ to peptide ratio 1:10, added: Aβ1–42 2 µM; reference: untreated cells).
`TTTCAGATAGCATAACGCCTGCTCCTCTCCAGTCACTTTAAAAATGTATTTGAAATACATCTTTAAAGGTGCAATAAGATCTTTTTTAAATAGGACTGTTACTTTTGATTAAAGATGTATTTTAGATACATCTTTATACTAGACTTTTAATGGAATTAAAGCAATATTATCAATGAATGTTTTATATTTTTGTAACAATTTCCGCTCGACCCTCATAATCGAAGGCAAATGTGATAAGATAATGGAAACTTGTTTGATTGAGGTCA (dsDNA)`: binding “binds” (abrB full length assumed; EMSA; double-stranded DNA, one strand shown).
For `GGGAUCGUCAGGUGGGAUAAUCCUUACCUGUUCCUCCUCCGGAGGGCAGAUUAGAACAUGAUGAUUGGAGAUGCAUGAAACGUGAUUAACGUCUCUGCGUAAUCAGGACUUGCAACACCCUGAUUGCUCCUGUCUGAUU (structured RNA)`, binding read “binds” (SNU13; EMSA; 100 nM, added: Mg2+ 1.5 mM).
Under binding, `TTCCTCCATCTTCATCTTCACCACCACCTTTCAATTCTATAGTAGATTAGCGGGTAATAATGGGCATAGGCATAGGGGTTGCTATCGGCTTCTTTCAATTCTATAGTAGATTAGCGATAAGCGATAAGCCCCGCGACTGCGAAGATGACAAAGAAGA (dsDNA (Sulfolobus islandicus))` is recorded as “binds” (T1, Cbp1 1-150 (Saccharolobus islandicus); EMSA; double-stranded DNA, one strand shown; two retarded bands).
Under binding, `GTTGTTTTAGTGCTTGTTAACCAGCGTGTCACAAAATATCTATAATTCCTTCGTATAATTGTCACAATGACATCCATAAATTAGGGGAAATGTACTTTATTTAAGAAGGAATTCGCGGTAAAGTACAGGTATAAATAACCATCCTGATAATAACGGAACATCAATGCGGGCCGAGGTCACCCTTTTGTCTGTAATCATAATCACATTAATAAGATGCATGTGAAAGTCTGAGCAAGTGTGATGCCCATTTGGCAAACGGGCCCGGCTAGAACAAAGAGGAGGAGAC (dsDNA)` is recorded as “binds” (abrB full length assumed; EMSA; double-stranded DNA, one strand shown).
`Insulin human` gave a brain concentration of 40.4 ± 12.2 pg/mg tissue (rat, substantia nigra/VTA; intranasal, 20 µg per nostril, 120 min).
Under binding, `GATTGCAGAGATACTACAAAGGTATTACAAAAAAATAGGCATAGAGAATGTGAATCAGTTGATACTAACTACTATAAAATAGTTCGTATGTCGAACCTTTCTTTACCGAATTCATTATATATCCTTTACCTTAATTCTCACTTGTATGATAAAAGTAGGTATTTTAGATTCGACGTTAAGAGAAGGAG (dsDNA)` is recorded as “binds” (lysM 1-142; Cu-OP in-gel footprinting; double-stranded DNA, one strand shown).
For `AACTTGCTGAC (dsDNA)`, binding read “no binding” (T2, NR1I2/RXRA (Homo sapiens); fluorescence anisotropy competition; double-stranded DNA, one strand shown; 10 µM, added: DR3 FAM).
`GTAATCCGCCGTAACCAGCGCCTAAAATGACGATATGTTTTGACATCGTGAATCCTCCGTCCTTATTCTGAATGTATAGTGATTATTTTTGTTTTTCGCGTTCTGACATGATTTGCAGGTAGCTTTGAACAAATCGGAACAGCTTTTGGGCCTGCGGATCTTTAAGCATTTTCAGCAAACCGAAAAGTCCGATGACTTCATTGCTTTCGTCAGCGCGGTCTTTTGCTTCAATGGCG (dsDNA)` — result for binding: “binds” (abrB full length assumed; EMSA; double-stranded DNA, one strand shown).
`AACTGCAGGAAATTCTACTGTAAAGTATGGTTCCCAATTTATTATATTCTATTATCATGAAACTATCTCTTAAGTTCGGAAATCAAACCTCATATTAACGCCAATCAAAACTAATTACTAAATAGTCTATGAAATTTATGAATAGTTTTTAATCAATGCCTTCAACAATAGAAAGGGATCCCG (dsDNA)` — result for binding: “binds” (lysM 1-142; Cu-OP in-gel footprinting; double-stranded DNA, one strand shown).
`ACATAATGTCACCAGCAGGTAAAAAGTAACTTTGGTTCTGGACAATATGGCCGATGTGTTGAAAACGCAACACATCGGCCTTTTGTGGCGTCTGCGGCCTGCATAATGGAAAAATAGTGAGTTCATTCATTTGAGTAATTGGATTAATCGTTTATATCTAGCAGACAAGAAAACATTTTTTTAATTTAATAAATAGGTAATACGCCAATGGTTAAG (dsDNA (Dickeya zeae); blunt)` — result for binding: “binds” (ihfA 1-99 (Dickeya zeae, UniProt D2BZB1); EMSA; double-stranded DNA, one strand shown).
`GGGAUCGUCAGGUGGGAUAAUCCUUACCUGUUCCUCCUCCGGAGGGCAGAUUAGAACAUAAUGAUUGGAGAUGCAUGAAACGUGAUUAACGUCUCUGCGUAAUCAGGACUUGCAACACCCUGAUUGCUCCUGUCUGAUU (structured RNA)` — result for binding: “no binding” (SNU13; EMSA; added: Mg2+ 1.5 mM).
`UGT1A9 (Homo sapiens, UniProt O60656)` has a Vmax/Km of 60 µL/min/mg (Oc1ccc(C2CCCC2)cc1; steady-state kinetics; pH 7.4, 37 °C).
The cell viability of `VVI[dF] (D-Phe4)` is reported as 70% (PC-12; protection from Aβ1–42 toxicity, MTT; concentration not given, 6 h, Aβ to peptide ratio 1:5, added: Aβ1–42 2 µM; reference: untreated cells).
For `GGGAUGUUAAAGAUGAGCGGGUGGCAGCGACAGAGCCAAAAUCAGAGCUGGAACCUGAGGAGAGAGUGUUCAAGAAGGAAGUGUAUCUUCAUACAUCACCACACCUG (structured RNA (Homo sapiens); stem-loop nt 72-91)`, binding read “binds” (endouc 23-309 (Danio rerio, UniProt Q1LUM3); EMSA).
